Experimental data from different studies.
Values after ≈ are worked out from the molar mass of the structure shown.
Sequence of UniProt Q9UQ88 (whole entry, looked up): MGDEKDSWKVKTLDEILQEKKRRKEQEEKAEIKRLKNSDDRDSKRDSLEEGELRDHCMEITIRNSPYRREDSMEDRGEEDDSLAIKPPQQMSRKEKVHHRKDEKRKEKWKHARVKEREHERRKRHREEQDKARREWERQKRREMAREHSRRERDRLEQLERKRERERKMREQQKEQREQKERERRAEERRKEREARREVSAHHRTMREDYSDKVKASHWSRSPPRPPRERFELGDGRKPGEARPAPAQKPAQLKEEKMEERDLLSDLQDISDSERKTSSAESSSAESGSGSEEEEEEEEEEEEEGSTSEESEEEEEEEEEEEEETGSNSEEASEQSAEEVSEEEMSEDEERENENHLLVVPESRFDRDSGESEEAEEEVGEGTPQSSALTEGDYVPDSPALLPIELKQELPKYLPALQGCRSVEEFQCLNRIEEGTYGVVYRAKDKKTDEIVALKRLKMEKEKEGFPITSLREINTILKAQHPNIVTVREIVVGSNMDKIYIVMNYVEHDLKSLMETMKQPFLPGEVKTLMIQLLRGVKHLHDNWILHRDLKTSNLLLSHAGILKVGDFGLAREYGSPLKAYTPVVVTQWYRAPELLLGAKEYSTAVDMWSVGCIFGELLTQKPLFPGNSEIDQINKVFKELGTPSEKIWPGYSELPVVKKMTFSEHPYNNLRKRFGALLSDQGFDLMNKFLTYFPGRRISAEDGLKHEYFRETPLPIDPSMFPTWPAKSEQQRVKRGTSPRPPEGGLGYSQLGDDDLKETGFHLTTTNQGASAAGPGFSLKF
Sequence of UniProt Q9Y616 (whole entry, looked up): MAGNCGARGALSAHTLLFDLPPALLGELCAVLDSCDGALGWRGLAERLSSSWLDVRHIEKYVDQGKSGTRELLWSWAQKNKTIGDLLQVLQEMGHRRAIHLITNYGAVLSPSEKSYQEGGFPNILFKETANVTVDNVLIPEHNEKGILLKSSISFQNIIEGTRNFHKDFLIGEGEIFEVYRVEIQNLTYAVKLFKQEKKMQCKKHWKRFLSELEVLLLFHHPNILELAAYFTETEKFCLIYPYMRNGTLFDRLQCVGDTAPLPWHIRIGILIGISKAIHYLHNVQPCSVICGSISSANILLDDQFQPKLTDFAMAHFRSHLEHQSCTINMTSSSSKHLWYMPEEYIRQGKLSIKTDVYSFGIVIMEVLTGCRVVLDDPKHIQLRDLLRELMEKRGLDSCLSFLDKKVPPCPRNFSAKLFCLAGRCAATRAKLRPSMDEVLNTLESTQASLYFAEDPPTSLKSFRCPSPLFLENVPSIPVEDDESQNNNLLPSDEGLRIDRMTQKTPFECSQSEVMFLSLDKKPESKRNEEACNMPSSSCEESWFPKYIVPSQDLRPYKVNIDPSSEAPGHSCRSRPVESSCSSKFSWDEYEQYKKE
Sequence of UniProt Q9Y2K2 (whole entry, looked up): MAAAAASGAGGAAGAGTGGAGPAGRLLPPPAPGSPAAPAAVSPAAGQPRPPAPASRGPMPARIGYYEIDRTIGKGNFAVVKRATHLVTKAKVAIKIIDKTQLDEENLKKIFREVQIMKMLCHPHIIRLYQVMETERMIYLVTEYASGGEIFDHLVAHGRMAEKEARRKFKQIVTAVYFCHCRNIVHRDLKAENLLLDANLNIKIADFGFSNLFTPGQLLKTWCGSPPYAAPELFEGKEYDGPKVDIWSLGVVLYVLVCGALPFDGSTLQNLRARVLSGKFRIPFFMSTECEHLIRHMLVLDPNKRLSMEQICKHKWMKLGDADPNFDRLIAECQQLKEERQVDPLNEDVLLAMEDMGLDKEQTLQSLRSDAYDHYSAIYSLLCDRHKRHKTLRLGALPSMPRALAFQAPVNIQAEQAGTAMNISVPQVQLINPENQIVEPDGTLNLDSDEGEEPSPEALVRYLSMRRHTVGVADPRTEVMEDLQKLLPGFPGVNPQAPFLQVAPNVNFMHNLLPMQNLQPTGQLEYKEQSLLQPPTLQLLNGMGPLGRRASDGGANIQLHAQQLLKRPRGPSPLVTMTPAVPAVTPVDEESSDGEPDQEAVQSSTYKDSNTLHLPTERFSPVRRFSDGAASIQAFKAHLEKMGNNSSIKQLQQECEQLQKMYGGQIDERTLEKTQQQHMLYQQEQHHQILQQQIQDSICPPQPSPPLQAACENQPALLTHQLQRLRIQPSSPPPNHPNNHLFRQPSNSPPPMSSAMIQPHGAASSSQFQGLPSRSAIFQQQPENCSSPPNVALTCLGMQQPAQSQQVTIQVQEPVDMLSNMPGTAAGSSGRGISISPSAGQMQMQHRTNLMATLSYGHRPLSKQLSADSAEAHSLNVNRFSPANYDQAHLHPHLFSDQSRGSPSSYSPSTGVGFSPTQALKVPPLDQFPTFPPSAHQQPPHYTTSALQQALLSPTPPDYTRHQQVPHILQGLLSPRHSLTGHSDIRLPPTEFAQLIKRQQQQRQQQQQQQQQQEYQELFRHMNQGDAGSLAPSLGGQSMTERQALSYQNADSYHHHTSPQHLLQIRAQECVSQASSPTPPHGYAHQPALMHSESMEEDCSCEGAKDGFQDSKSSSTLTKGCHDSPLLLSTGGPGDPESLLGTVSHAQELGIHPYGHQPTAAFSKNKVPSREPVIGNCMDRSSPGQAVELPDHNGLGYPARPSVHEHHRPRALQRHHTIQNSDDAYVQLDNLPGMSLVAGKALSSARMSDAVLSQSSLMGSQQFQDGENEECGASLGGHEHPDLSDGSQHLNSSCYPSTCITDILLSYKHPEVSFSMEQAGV
Sequence of UniProt P34975 (whole entry, looked up): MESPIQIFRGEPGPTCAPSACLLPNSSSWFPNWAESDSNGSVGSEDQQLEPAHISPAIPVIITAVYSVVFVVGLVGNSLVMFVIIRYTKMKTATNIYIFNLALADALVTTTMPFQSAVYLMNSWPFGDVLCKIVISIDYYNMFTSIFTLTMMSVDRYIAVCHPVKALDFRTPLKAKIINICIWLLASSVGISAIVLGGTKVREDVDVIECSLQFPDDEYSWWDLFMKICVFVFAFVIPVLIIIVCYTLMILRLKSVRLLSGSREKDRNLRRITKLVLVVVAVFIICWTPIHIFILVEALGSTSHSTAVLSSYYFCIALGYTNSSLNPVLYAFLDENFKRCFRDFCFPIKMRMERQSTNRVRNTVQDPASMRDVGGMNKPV

`Nc1ncc(-c2nc(N3CCOCC3)nc(N3CCOCC3)n2)c(C(F)F)n1` has a remaining signal of 114% (Kappa-type opioid receptor (Oprk1, Rattus norvegicus, UniProt P34975); cell-free assay, radioligand; 10 µM).
With `C#Cc1ccc2c(c1)C(c1ccccn1)=NCc1c(-c3cnco3)ncn1-2` the kinetic solubility was 674 µg/mL (≈ 1920 µM) (water; 2 h, 37 °C).
With `CC[C@H](C)[C@@H]1NC(=O)CNC(=O)[C@@H](CC(C)C)NC(=O)[C@@H](C(C)C)NC(=O)[C@H]2CCCN2C(=O)[C@@H](CC(C)C)NC(=O)[C@H](Cc2ccccc2)NC(=O)[C@@H]2CCCN2C(=O)[C@H](CC(C)C)NC(=O)[C@H](CO)NC(=O)CNC(=O)[C@H]([C@@H](C)O)NC1=O` the thermodynamic solubility was 698 µM (≈ 834 µg/mL) (aqueous buffer; 18 h, pH 7.4).
`[2H]c1c([2H])c([C@]2([2H])CCCN2C(=O)C(C)(C)Oc2ccc3cn[nH]c3c2)c([2H])c([2H])c1C([2H])([2H])[2H]` gave a remaining binding of 53% (Interleukin-1 receptor-associated kinase 3 (IRAK3, Homo sapiens, UniProt Q9Y616); binding, competition with immobilised ligand; 1 µM).
`CC[C@H](C)[C@H](NC(=O)[C@H](Cc1ccccc1)NC(=O)[C@H](CCC(=O)O)NC(=O)[C@H](CCCCN)NC(=O)[C@H](C)NC(=O)[C@H](C)NC(=O)[C@H](CCC(N)=O)NC(=O)CNC(=O)[C@H](CCC(=O)O)NC(=O)[C@H](CC(C)C)NC(=O)[C@H](Cc1ccc(O)cc1)NC(=O)[C@H](CO)NC(=O)[C@H](CO)NC(=O)[C@@H](NC(=O)[C@H](CC(=O)O)NC(=O)[C@H](CO)NC(=O)[C@@H](NC(=O)[C@H](Cc1ccccc1)NC(=O)[C@@H](NC(=O)CNC(=O)[C@H](CCC(=O)O)NC(=O)[C@H](C)NC(=O)N(N)Cc1c[nH]cn1)[C@@H](C)O)[C@@H](C)O)C(C)C)C(=O)N[C@@H](C)C(=O)N[C@@H](Cc1c[nH]c2ccccc12)C(=O)N[C@@H](CC(C)C)C(=O)N[C@H](C(=O)N[C@@H](CCCNC(=N)N)C(=O)NCC(=O)N[C@@H](CCCNC(=N)N)C(=O)NCC(=O)O)C(C)C` has a Vd of 0.06 L/kg (male CD-1 mouse, plasma; intravenous, 1 mg/kg, single dose).
With `CC[C@H](C)[C@@H]1NC(=O)[C@H]2CCCN2C(=O)[C@@H](CC(C)C)NC(=O)CNC(=O)[C@H]2CCCN2C(=O)[C@@H](Cc2ccc(O)cc2)NC(=O)CNC(=O)[C@H](CO)NC(=O)[C@H](C(C)C)NC(=O)[C@H](CC(C)C)NC1=O` the thermodynamic solubility was 911 µM (≈ 908 µg/mL) (aqueous buffer; 18 h, pH 7.4).
`Cc1nn(C)cc1-c1nc2c(N3CCN(Cc4ccc(Cl)cc4)CC3)c(Cl)cnc2[nH]1` gave a remaining binding of 100% (Cyclin-dependent kinase 11A (CDK11A, Homo sapiens, UniProt Q9UQ88); binding, competition with immobilised ligand; 1 µM).
For `COc1ncccc1-c1cnn2ccc(N3CCN(C(=O)OC(C)C)CC3)nc12`, the remaining binding was 100% (Serine/threonine-protein kinase SIK3 (SIK3, Homo sapiens, UniProt Q9Y2K2); binding, competition with immobilised ligand; 1 µM).
The thermodynamic solubility of `CC[C@@H](C)[C@H]1NC(=O)[C@@H](Cc2ccc(O)cc2)NC(=O)[C@H](CCCNC(=N)N)NC(=O)[C@H](CCSC)NC(=O)[C@H](CC(C)C)NC(=O)[C@H](CC(C)C)NC(=O)[C@H]2CCCN2C(=O)[C@H](CC(C)C)NC(=O)CNC(=O)CNC(=O)CNC1=O` is reported as 655 µM (≈ 767 µg/mL) (aqueous buffer; 18 h, pH 7.4).
`CCCC[C@H](NC(C)=O)C(=O)N[C@@H](C)C(=O)N[C@@H](Cc1c[nH]cn1)C(=O)N[C@@H](Cc1ccccc1)C(=O)N[C@@H](CCCNC(=N)N)C(=O)N[C@H](Cc1c[nH]c2ccccc12)C(=O)N[C@@H](CC(=O)O)C(=O)N[C@@H](CCCNC(=N)N)C(=O)N[C@@H](Cc1ccccc1)C(=O)N[C@@H](C(=O)N1CCC[C@@H]1C(N)=O)C(C)C` gave a half-life of 134 min (male cynomolgus monkey, plasma; subcutaneous, 8 mg/kg).
For `CN1CCN(S(=O)(=O)c2cc([N+](=O)[O-])ccc2N(CCOS(C)(=O)=O)CCOS(C)(=O)=O)CC1`, the half-life was 21 min (female SCID mouse, plasma; intraperitoneal, 25 mg/kg).
For `N=c1c2c(-c3ccccc3)c(-c3ccccc3)n(Cc3ccccc3)c2ncn1[C@H]1CC[C@H](O)CC1`, the half-life was 2410 min (male cynomolgus monkey, plasma; intravenous, 0.5 mg/kg, single dose).
For `CC[C@H](C)[C@H]1C(=O)N[C@@H]([C@@H](C)O)C(=O)NCC(=O)NCC(=O)N[C@@H](C)C(=O)N[C@@H](CC(C)C)C(=O)N[C@@H](C(C)C)C(=O)N[C@@H](CC(C)C)C(=O)N2CCC[C@@H]2C(=O)N[C@H](Cc2ccc(O)cc2)C(=O)N[C@H](CC(C)C)C(=O)N1C`, the solubility was 479 µM (≈ 532 µg/mL) (aqueous buffer; 18 h, pH 7.4).
For `CC(C)C[C@H](NC(=O)[C@H](Cc1ccccc1)NC(=O)[C@H](Cc1ccccc1)NC(=O)Cc1ccc(-c2ccccc2)cc1)C(=O)N[C@@H](CCCCN)C(=O)N[C@@H](CCCNC(=N)N)C(=O)N[C@H](C(=O)N[C@@H](Cc1c[nH]c2ccccc12)C(=O)N[C@@H](CCCCN)C(=O)N[C@@H](CCCNC(=N)N)C(=O)O)C(C)C`, the compound remaining was 50.9% (metabolic stability; rat, liver microsomes; 5 min).
With `CCCC[C@@H]1NC(=O)[C@H](Cc2ccc(O)cc2)NC(=O)[C@@H]2CCCN2C(=O)[C@H](CC(=O)O)NC(=O)[C@H](C)NC(=O)[C@H](Cc2ccccc2)NC(=O)[C@@H]2CSCCC(=O)N3CN(CN(C3)C(=O)CCSC[C@@H](C(N)=O)NC1=O)C(=O)CCSCCC(=O)N[C@@H](CC(C)(C)C)C(=O)N1CCC[C@H]1C(=O)N[C@@H](CCC(=O)O)C(=O)N[C@H](CCCCNC(=O)CCc1cn(CCOCCOCCOCCN(CCOCCOCCOCCC(=O)N[C@H]3CSCCC(=O)N4CN5CN(C4)C(=O)CCSC[C@H](NC(=O)[C@@H](CC(=O)O)NC(=O)[C@H](Cc4cccc6ccccc46)NC(=O)[C@@H]4CCCN4C3=O)C(=O)N[C@@H](CCSC)C(=O)N[C@@H](CCCCNC(=N)N)C(=O)N[C@@H](CC(=O)O)C(=O)N[C@@H](Cc3c[nH]c4ccccc34)C(=O)N[C@@H](CO)C(=O)N[C@@H]([C@@H](C)O)C(=O)N3CCC[C@H]3C(=O)N3C[C@H](O)C[C@H]3C(=O)N[C@@H](Cc3c[nH]c4ccccc34)C(=O)N[C@H](C(N)=O)CSCCC5=O)CCOCCOCCOCCn3cc(CCC(=O)NCCCC[C@H]4NC(=O)[C@H](CCC(=O)O)NC(=O)[C@@H]5CCCN5C(=O)[C@H](CC(C)(C)C)NC(=O)CCSCCC(=O)N5CN6CN(C5)C(=O)CCSC[C@H](NC(=O)[C@H](Cc5ccc(O)cc5)NC(=O)[C@@H]5CCCN5C4=O)C(=O)N[C@@H](Cc4ccccc4)C(=O)N[C@@H](C)C(=O)N[C@@H](CC(=O)O)C(=O)N4CCC[C@H]4C(=O)N[C@@H](Cc4ccc(O)cc4)C(=O)N[C@@H](CCCC)C(=O)N[C@H](C(N)=O)CSCCC6=O)nn3)nn1)C(=O)N1CCC[C@H]1C(=O)N[C@@H](Cc1ccc(O)cc1)C(=O)N2` the Vd was 4.8 L/kg (rat, plasma; intravenous, 2 mg/kg).
For `CC(C)CC(=O)OC[C@H]1O[C@@](C#N)(c2ccc3c(N)ncnn23)[C@H](O)[C@@H]1O`, the hepatocyte CLint was > 318 µL/min/10⁶ cells (metabolic stability; monkey, hepatocytes; 5 µM).
`NCCNC(=O)O[C@H]1CCC[C@@]2(C1)OOC1(O2)C2CC3CC(C2)CC1C3` (some centres unmarked) has a Tmax of 2 h (male CD-1 mouse, plasma; oral, 10 mg/kg).
`CC[C@H](C)[C@H]1C(=O)N[C@H](Cc2ccc(O)cc2)C(=O)N[C@H](C(=O)O)CSSC[C@H](N)C(=O)N[C@@H](Cc2ccccc2)C(=O)N[C@@H](C(C)C)C(=O)N[C@@H](CC(C)C)C(=O)N2CCC[C@H]2C(=O)N[C@@H](CC(N)=O)C(=O)N[C@@H](Cc2ccc(O)cc2)C(=O)N1C` has a thermodynamic solubility of 641 µM (≈ 799 µg/mL) (aqueous buffer; 18 h, pH 7.4).
For `CC(C)(N)CNC(=O)O[C@H]1CCC[C@@]2(C1)OOC1(O2)C2CC3CC(C2)CC1C3` (some centres unmarked), the half-life was 72.6 min (male CD-1 mouse, plasma; intravenous, 3 mg/kg).
`CC[C@H](C)[C@H]1C(=O)N[C@@H](CO)C(=O)N[C@@H](CC(C)C)C(=O)NCC(=O)N2CCC[C@H]2C(=O)N[C@@H](CC(C)C)C(=O)N[C@@H]([C@@H](C)O)C(=O)N[C@@H](CC(C)C)C(=O)N[C@@H](CC(=O)O)C(=O)N[C@H](Cc2ccc(O)cc2)C(=O)N2CCC[C@@H]2C(=O)N[C@H](Cc2ccc(O)cc2)C(=O)N1C` has a solubility of 407 µM (≈ 549 µg/mL) (aqueous buffer; 18 h, pH 7.4).
`CNC(=O)[C@@H](NC(=O)c1cc(OCC2(C)COC2)c(C2CC2)cn1)C(C)(C)C` gave a Vd of 3.1 L/kg (C57BL/6 mouse, plasma; intravenous).
With `C=C(C)[C@@H]1CC[C@]2(NCCN3CCS(=O)(=O)CC3)CC[C@]3(C)[C@H](CC[C@@H]4[C@@]5(C)CC=C(C6=CC[C@@](COc7ncccc7C#N)(C(=O)O)CC6)C(C)(C)[C@@H]5CC[C@]43C)[C@@H]12` the concentration was 154 ng/mL (human, plasma; oral, 100 mg, 24 h, single dose, fasted, tablet).
For `CCCCCCCCCCCCCCCC(=O)NCCOC(=O)C[C@@H](CN)CC(C)C`, the LD50 was > 2000 mg/kg (mouse; oral, 2000 mg/kg, single dose).
The Tmax of `COc1ccc(F)cc1C(=O)NCc1ccc(-c2nn([C@@H](C)C(F)(F)F)c(N)c2C(N)=O)cc1` is reported as 3 h (human, plasma; oral, 200 mg, single dose).
With `CC[C@H](C)[C@H]1C(=O)N[C@@H](CC(C)C)C(=O)N2CCC[C@H]2C(=O)N2CCC[C@@H]2C(=O)NCC(=O)N[C@@H](CC(C)C)C(=O)N[C@@H](CC(C)C)C(=O)N[C@@H](C)C(=O)N[C@@H](CO)C(=O)N[C@H]([C@H](C)O)C(=O)N[C@H](Cc2ccc(O)cc2)C(=O)N1C` the thermodynamic solubility was 767 µM (≈ 875 µg/mL) (aqueous buffer; 18 h, pH 7.4).
For `CCC[C@@](N)(CO)CCc1ccc(OCCCCCC(C)C)cc1`, the Cmax was 105 nM (dog, plasma; oral, 2.5 mg/kg, solution).

A few entries again:
For `CC[C@H](C)[C@H]1C(=O)N[C@@H]([C@@H](C)O)C(=O)NCC(=O)NCC(=O)N[C@@H](C)C(=O)N[C@@H](CC(C)C)C(=O)N[C@@H](C(C)C)C(=O)N[C@@H](CC(C)C)C(=O)N2CCC[C@@H]2C(=O)N[C@H](Cc2ccc(O)cc2)C(=O)N[C@H](CC(C)C)C(=O)N1C`, the solubility was 479 µM (≈ 532 µg/mL) (aqueous buffer; 18 h, pH 7.4).
For `CCCCCCCCCCCCCCCC(=O)NCCOC(=O)C[C@@H](CN)CC(C)C`, the LD50 was > 2000 mg/kg (mouse; oral, 2000 mg/kg, single dose).
